Measurements of several laboratories.
Lines come from different studies, so protocols differ. Numbers after ± are the reported error.
PLA2G5: Phospholipase A2 group V (PLA2G5, Homo sapiens, UniProt P39877)
UniProt P39877, sequence (whole entry, looked up): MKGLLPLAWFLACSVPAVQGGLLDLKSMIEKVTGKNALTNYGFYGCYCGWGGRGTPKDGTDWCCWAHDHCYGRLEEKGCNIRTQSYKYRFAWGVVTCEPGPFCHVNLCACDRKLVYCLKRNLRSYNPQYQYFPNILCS
Aldo-keto reductase family 1 member A1: Aldo-keto reductase family 1 member A1 (Bos taurus, UniProt Q3ZCJ2)
UniProt Q3ZCJ2, sequence (whole entry, looked up): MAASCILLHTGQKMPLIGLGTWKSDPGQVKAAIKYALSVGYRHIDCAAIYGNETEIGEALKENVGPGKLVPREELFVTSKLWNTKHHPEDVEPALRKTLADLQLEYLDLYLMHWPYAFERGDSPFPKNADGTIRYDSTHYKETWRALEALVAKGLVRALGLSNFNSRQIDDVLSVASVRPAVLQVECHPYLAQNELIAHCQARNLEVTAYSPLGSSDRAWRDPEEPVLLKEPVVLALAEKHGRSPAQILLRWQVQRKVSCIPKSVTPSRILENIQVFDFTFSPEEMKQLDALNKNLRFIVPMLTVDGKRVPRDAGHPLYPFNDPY
CNGA1: Cyclic nucleotide-gated channel alpha-1 (CNGA1, Bos taurus, UniProt Q00194)
UniProt Q00194, sequence (whole entry, looked up): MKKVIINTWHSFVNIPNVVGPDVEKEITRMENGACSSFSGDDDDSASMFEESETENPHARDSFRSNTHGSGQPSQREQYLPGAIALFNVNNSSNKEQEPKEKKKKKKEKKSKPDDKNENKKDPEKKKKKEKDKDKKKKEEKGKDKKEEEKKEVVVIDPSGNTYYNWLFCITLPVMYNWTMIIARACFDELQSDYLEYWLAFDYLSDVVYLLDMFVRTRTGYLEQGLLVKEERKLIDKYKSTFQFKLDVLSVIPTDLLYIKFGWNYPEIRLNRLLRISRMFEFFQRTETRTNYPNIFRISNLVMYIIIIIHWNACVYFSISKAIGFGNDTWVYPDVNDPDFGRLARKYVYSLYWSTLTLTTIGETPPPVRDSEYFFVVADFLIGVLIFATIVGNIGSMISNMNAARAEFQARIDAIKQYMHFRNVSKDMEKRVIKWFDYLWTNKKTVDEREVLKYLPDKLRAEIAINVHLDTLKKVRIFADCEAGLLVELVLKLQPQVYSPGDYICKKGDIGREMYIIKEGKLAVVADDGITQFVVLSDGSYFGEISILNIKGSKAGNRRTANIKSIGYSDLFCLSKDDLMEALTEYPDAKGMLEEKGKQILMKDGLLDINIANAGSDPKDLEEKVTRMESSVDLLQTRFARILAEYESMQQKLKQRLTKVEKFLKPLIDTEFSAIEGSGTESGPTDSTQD
SLC51A with OSTβ: Organic solute transporter subunit alpha, with OSTβ (SLC51A, Homo sapiens, UniProt Q86UW1)
UniProt Q86UW1, sequence (whole entry, looked up): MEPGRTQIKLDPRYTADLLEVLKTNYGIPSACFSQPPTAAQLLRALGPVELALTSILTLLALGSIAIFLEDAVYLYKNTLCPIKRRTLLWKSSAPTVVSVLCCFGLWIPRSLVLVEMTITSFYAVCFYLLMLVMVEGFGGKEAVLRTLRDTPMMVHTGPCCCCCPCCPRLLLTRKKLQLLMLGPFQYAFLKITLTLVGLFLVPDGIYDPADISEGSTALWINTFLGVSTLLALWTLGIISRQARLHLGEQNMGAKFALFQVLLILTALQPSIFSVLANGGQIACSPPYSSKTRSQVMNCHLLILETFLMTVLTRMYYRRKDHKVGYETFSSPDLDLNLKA
EPHX1: Epoxide hydrolase 1 (EPHX1, Homo sapiens, UniProt P07099)
UniProt P07099, sequence (whole entry, looked up): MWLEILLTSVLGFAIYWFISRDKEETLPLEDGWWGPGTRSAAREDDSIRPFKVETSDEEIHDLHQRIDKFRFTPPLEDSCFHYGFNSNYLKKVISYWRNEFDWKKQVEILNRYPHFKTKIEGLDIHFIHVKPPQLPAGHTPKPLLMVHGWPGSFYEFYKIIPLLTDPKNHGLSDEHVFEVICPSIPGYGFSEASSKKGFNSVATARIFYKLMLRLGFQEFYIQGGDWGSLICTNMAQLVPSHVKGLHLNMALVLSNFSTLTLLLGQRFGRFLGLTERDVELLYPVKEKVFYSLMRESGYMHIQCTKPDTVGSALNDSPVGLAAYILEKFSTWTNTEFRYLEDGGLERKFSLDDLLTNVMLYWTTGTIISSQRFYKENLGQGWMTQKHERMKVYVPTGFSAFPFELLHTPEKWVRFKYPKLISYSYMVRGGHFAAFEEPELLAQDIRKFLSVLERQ
PARP3: Protein mono-ADP-ribosyltransferase PARP3 (PARP3, Homo sapiens, UniProt Q9Y6F1)
UniProt Q641Y2, sequence (whole entry, looked up): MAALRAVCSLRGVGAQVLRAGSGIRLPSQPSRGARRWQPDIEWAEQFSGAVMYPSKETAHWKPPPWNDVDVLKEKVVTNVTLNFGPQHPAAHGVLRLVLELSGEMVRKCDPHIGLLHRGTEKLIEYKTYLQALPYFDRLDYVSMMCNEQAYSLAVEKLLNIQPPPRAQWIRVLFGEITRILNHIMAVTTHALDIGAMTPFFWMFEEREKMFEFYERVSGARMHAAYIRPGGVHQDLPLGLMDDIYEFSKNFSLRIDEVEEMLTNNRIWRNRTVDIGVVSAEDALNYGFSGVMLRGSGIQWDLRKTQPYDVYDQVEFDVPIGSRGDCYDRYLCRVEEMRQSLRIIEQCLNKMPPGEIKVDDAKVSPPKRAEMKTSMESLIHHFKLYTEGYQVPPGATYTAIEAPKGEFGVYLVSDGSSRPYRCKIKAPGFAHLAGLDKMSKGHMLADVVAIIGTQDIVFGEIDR
UniProt P03889, sequence (whole entry, looked up): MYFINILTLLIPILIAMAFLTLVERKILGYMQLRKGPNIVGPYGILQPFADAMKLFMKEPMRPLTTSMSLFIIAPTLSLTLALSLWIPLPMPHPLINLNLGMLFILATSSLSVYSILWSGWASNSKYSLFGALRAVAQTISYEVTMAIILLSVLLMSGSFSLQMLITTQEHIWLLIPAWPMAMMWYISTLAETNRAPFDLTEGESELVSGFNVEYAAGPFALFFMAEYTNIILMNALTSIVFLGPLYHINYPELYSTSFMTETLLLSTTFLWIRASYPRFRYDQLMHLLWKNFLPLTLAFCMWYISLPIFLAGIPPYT
UniProt Q9Y6F1, sequence (whole entry, looked up): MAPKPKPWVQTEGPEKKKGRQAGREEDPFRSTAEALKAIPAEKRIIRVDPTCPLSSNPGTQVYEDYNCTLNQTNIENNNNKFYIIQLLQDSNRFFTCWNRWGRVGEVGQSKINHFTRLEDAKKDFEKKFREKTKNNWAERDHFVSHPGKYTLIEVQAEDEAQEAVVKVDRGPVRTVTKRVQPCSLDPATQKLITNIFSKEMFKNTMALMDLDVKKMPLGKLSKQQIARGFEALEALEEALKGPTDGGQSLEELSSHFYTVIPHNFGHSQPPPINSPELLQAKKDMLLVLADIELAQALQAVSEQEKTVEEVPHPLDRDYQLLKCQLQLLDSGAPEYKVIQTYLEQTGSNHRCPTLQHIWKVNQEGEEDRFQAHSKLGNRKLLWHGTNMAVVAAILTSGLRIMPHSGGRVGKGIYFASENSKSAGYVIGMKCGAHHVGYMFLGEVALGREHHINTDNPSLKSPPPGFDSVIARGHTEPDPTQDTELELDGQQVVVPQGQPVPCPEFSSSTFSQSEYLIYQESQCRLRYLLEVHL
UniProt Q00534, sequence (whole entry, looked up): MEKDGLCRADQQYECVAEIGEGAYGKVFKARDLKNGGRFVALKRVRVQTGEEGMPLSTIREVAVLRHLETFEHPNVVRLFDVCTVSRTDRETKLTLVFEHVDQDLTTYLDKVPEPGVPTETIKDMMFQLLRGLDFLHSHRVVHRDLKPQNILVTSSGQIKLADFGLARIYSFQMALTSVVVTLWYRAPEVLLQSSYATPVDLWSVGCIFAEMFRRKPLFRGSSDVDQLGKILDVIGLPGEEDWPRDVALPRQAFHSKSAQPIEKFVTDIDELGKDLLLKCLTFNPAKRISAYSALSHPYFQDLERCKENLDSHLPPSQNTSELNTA
UniProt O43570, sequence (whole entry, looked up): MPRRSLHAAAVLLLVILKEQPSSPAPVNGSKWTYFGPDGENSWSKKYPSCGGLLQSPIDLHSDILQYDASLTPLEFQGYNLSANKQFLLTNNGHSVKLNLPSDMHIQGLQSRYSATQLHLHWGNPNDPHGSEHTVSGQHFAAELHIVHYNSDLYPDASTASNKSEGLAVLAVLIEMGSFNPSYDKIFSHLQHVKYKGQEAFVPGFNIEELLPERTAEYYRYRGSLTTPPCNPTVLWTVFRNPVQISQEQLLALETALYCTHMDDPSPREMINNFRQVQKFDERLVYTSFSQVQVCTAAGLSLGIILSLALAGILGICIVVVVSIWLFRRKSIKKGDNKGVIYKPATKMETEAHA

| Substance | target | test | system | setting | scale | endpoint | result |
| --- | --- | --- | --- | --- | --- | --- | --- |
| CCCC[C@H](NC(=O)C(=O)CCCCc1ccc(OC)cc1)C(=O)N[C@@H](C)C(=O)OC(C)(C)C | PLA2G5 | enzyme activity, mixed micelle | – | 0.091 mole fraction | – | inhibition | 49.9 ± 0.8% |
| O=[N+]([O-])c1ccc(-c2cs/c(=N/N=C\c3c[nH]c4ccccc34)n2-c2ccc(F)cc2)cc1 | Aldo-keto reductase family 1 member A1 | enzyme activity, inhibitor, absorbance | – | 1 mM | – | inhibition | < 50% |
| O=C(O)c1cc(N(Cc2ccccc2O)Cc2cc(O)ccc2O)ccc1O | CNGA1 | cGMP-activated current, inhibitor, inside-out patch clamp | Xenopus oocytes | 10 µM, no ATP, with: cGMP 2 mM | – | inhibition | no effect |
| CC(C)(C)c1cnc(CSc2cnc(NC(=O)C3CCN(CC(=O)NCCOCCOCCOCCNc4cccc5c4C(=O)N(C4CCC(=O)NC4=O)C5=O)CC3)s2)o1 (centres unmarked) | CDK6 (Homo sapiens, UniProt Q00534) | probe labeling, KiNativ live-cell profiling | MOLT-4 | 0.25 µM | – | inhibition | 11.1% |
| O=S(=O)(Sc1ccccc1Cl)c1ccccc1Cl | tubulin | colchicine binding | – | 5 µM, 10 min, 37 °C, with: 5.0 µM [3H]colchicine | – | inhibition | 12 ± 2% |
| CCCCCCCC(=O)OC[C@H](CO)OC(=O)CCCCCCC | CNGA1 | cGMP-activated current, inside-out patch, Xenopus oocytes | – | 0.5 µM, with: cGMP 10 µM | – | inhibition | 93% |
| Fc1ccccc1SSc1ccccc1F | tubulin | colchicine binding, [3H]colchicine binding | – | 50 µM, 10 min, 37 °C, with: [3H]colchicine 5.0 µM | – | inhibition | 53 ± 5% |
| COc1ccc2c(c1)c(CC(=O)O)c(C)n2C(=O)c1ccc(Cl)cc1 | SLC51A with OSTβ | transport | Flp-In-293 cells overexpressing OSTα/β | 100 µM, 30 s, with: DHEAS 20 µM | – | inhibition | no inhibition |
| NS(=O)(=O)c1ccc(N2N=C(c3ccc(F)cc3O)CC2c2ccc(Br)cc2)cc1 (centres unmarked) | CA12 (Homo sapiens, UniProt O43570) | enzyme activity, inhibitor, absorbance | – | 1 mM | – | inhibition | 37% |
| C/C(=N/N=c1/scc(-c2ccc([N+](=O)[O-])cc2)n1-c1c(C)cccc1C)c1ccc2c(c1)OCCO2 | Aldo-keto reductase family 1 member A1 | enzyme activity, inhibitor, absorbance | – | 1 mM | – | inhibition | 21.7% |
| O=c1c(-c2ccc(O)cc2)coc2cc(O)cc(O)c12 | CNGA1 | ion current, inside-out patch clamp | Xenopus oocytes | 100 µM, with: cGMP 2 mM | – | inhibition | 45.8 ± 5.7% |
| Fc1ccc(SSc2ccc(F)cc2)cc1 | tubulin | colchicine binding, [3H]colchicine binding | – | 5 µM, 10 min, 37 °C, with: [3H]colchicine 5.0 µM | – | inhibition | 2.6 ± 4% |
| Cc1ccc(O)c(C=NNC(=S)Nc2ccc(Cl)cc2)c1 | Aldo-keto reductase family 1 member A1 | inhibitor | Bos taurus (calf) | 100 µM, with: D-glucuronate substrate | – | inhibition | 35.1% |
| N=C(N=C(N)N)NCCc1ccccc1 | NADH dehydrogenase complex I (Rattus norvegicus, UniProt A6K8N6+P03889+Q641Y2) | NADH:ubiquinone-1 oxidoreductase activity, inhibitor | solubilised rat mitochondria | 200 µM, pH 7.4, 25 °C, active form, with: NADH 200 µM and ubiquinone-1 100 µM | – | inhibition | ~10% |
| O=S(=O)(Sc1ccccc1Br)c1ccccc1Br | tubulin | colchicine binding | – | 5 µM, 10 min, 37 °C, with: 5.0 µM [3H]colchicine | – | inhibition | 18 ± 5% |
| CCCCCCCCCCCCNC(C)=O | EPHX1 | enzyme activity, inhibitor, fluorescence | – | 100 µM | – | inhibition | 33% |
| O=S(=O)(Sc1ccc(F)cc1)c1ccc(F)cc1 | tubulin | colchicine binding, [3H]colchicine binding | – | 50 µM, 10 min, 37 °C, with: [3H]colchicine 5.0 µM | – | inhibition | 100 ± 0.3% |
| C[C@H](CCC(=O)NCCS(=O)(=O)O)[C@H]1CC[C@H]2[C@@H]3CC[C@@H]4C[C@H](OS(=O)(=O)O)CC[C@]4(C)[C@H]3CC[C@]12C | SLC51A with OSTβ | DHEAS uptake, inhibitor | Flp-In-293 expressing OSTα/β | 100 µM, 30 s, preincubation and co-incubation, with: DHEAS 20 µM | – | inhibition | ~20% |
| COC(=O)c1cccc(C(=O)OC)c1 | cysteine peptide Ac-RFAACAA-COOH | peptide depletion, DPRA RapidFire-MS/MS | – | 24 h, pH 7.5, room temperature, with: 5.0 µM cysteine peptide | – | IC50 | inactive |
| CC(=N/N=c1\scc(-c2ccc(Br)cc2)n1-c1c(C)cccc1C)C12CC3CC(CC(C3)C1)C2 | Aldo-keto reductase family 1 member A1 | enzyme activity, inhibitor, absorbance | – | 1 mM | – | inhibition | 11.6% |
| O=[N+]([O-])c1ccc(Oc2ccc(S(=O)(=O)NC3CCCCC3)cc2)cc1 | NADH dehydrogenase complex I, ubiquinone-binding site IQ (Rattus norvegicus, UniProt A6K8N6+P03889+Q641Y2) | site IQ H2O2 production | rat mitochondria | concentration not given, with: succinate | – | inhibition | ≥ 50% |

| Substance | target | test | system | setting | scale | endpoint | result |
| --- | --- | --- | --- | --- | --- | --- | --- |
| Cc1ccc(NC(=S)NN=Cc2cc(C)ccc2O)c(C)c1 | Aldo-keto reductase family 1 member A1 | inhibitor | Bos taurus (calf) | 100 µM, with: D-glucuronate substrate | – | inhibition | 24.7% |
| C/C(=N/N=c1/scc(-c2ccc([N+](=O)[O-])cc2)n1-c1ccc(F)cc1)c1ccc2c(c1)OCCO2 | Aldo-keto reductase family 1 member A1 | enzyme activity, inhibitor, absorbance | – | 1 mM | – | inhibition | 4.5% |
| GMGGRGLLL | Qa-1 (mouse), soluble | binding, SPR competition | peptide | 20 µM, 25 °C, 2% DMSO, unit not given | baseline: maximal blocking by 20 µM Qdm | inhibition | 0.74 |
| CCCCCCCCCCCCNC(=O)C(F)(F)F | EPHX1 | enzyme activity, inhibitor, fluorescence | – | 100 µM | – | inhibition | 0% |
| COc1cccc(NC(=S)NN=Cc2cc(C)ccc2O)c1 | Aldo-keto reductase family 1 member A1 | inhibitor | Bos taurus (calf) | 100 µM, with: D-glucuronate substrate | – | inhibition | 38.2% |
| CCc1c(Cl)c(O)c(Cl)c(O)c1C(=O)O[C@H]1[C@H](O)[C@H](OC)[C@H](OC/C2=C\C=C\C[C@H](O)/C(C)=C/[C@H](CC)[C@@H](O[C@@H]3OC(C)(C)[C@@H](OC(=O)C(C)C)[C@H](O)[C@@H]3O)/C(C)=C/C(C)=C/C[C@@H]([C@@H](C)O)OC2=O)O[C@@H]1C | SLC51A with OSTβ | taurocholate uptake, inhibitor | OSTα/β-expressing cells | 100 µM, 30 s, preincubation and co-incubation, with: taurocholate 20 µM | – | inhibition | > 70% |
| CC(=N/N=c1\scc(-c2ccc(Cl)cc2)n1-c1c(C)cccc1C)C12CC3CC(CC(C3)C1)C2 | Aldo-keto reductase family 1 member A1 | enzyme activity, inhibitor, absorbance | – | 1 mM | – | inhibition | 19.7% |
| COC(=O)c1ccccc1O | cysteine peptide Ac-RFAACAA-COOH | peptide depletion, DPRA RapidFire-MS/MS | – | 24 h, pH 7.5, room temperature, with: 5.0 µM cysteine peptide | – | IC50 | inactive |
| O=CN/C=C/c1cc(O)ccc1O | CNGA1 | cGMP-activated current, inhibitor, inside-out patch clamp | Xenopus oocytes | 25 µM, no ATP, with: cGMP 2 mM | – | inhibition | no effect |
| O=S(=O)(Sc1ccccc1F)c1ccccc1F | tubulin | colchicine binding | – | 5 µM, 10 min, 37 °C, with: 5.0 µM [3H]colchicine | – | inhibition | 0% |
| Cc1ccc(O)c(C=NNC(=S)Nc2cccc(F)c2)c1 | Aldo-keto reductase family 1 member A1 | inhibitor | Bos taurus (calf) | 100 µM, with: D-glucuronate substrate | – | inhibition | 17.8% |
| CCCCCCCCCCCCCCC(=O)C(=O)N[C@@H](CCCC)COCC(=O)OCC | PLA2G5 | enzyme activity, inhibitor, mixed micelle | – | 0.091 mole fraction | – | inhibition | ~80% |
| Cc1ccc(O)c(C=NNC(=S)Nc2ccc(N(C)C)cc2)c1 | Aldo-keto reductase family 1 member A1 | inhibitor | Bos taurus (calf) | 100 µM, with: D-glucuronate substrate | – | inhibition | 27.8% |
| O=C1NCC(c2ccccc2)C(O)c2ccccc21 (racemic) | PARP3 | enzyme activity, inhibitor, chemiluminescent | – | 10 µM | – | inhibition | ~91% |
| C/C(=N/N=c1/scc(-c2ccc(Br)cc2)n1-c1ccccc1C)c1ccc2c(c1)NC(=O)CO2 | Aldo-keto reductase family 1 member A1 | enzyme activity, inhibitor, absorbance | – | 1 mM | – | inhibition | 6.7% |
| Brc1ccc(SSc2ccc(Br)cc2)cc1 | tubulin | colchicine binding, [3H]colchicine binding | – | 50 µM, 10 min, 37 °C, with: [3H]colchicine 5.0 µM | – | inhibition | 0 ± 2% |
| COc1cccc(-n2c(-c3ccc(Cl)cc3)cs/c2=N/N=C(/C)c2ccc3c(c2)NC(=O)CO3)c1 | Aldo-keto reductase family 1 member A1 | enzyme activity, inhibitor, absorbance | – | 1 mM | – | inhibition | 32.8% |
| Clc1ccccc1SSc1ccccc1Cl | tubulin | colchicine binding, [3H]colchicine binding | – | 50 µM, 10 min, 37 °C, with: [3H]colchicine 5.0 µM | – | inhibition | 36 ± 2% |
| O=C1CCCc2ccccc2N1 | PARP3 | enzyme activity, inhibitor | – | 10 µM | – | inhibition | 24% |
| CC(=N/N=c1\scc(-c2ccc(Cl)cc2)n1Cc1ccccc1)C12CC3CC(CC(C3)C1)C2 | Aldo-keto reductase family 1 member A1 | enzyme activity, inhibitor, absorbance | – | 1 mM | – | inhibition | 33.5% |

For quick reference, copied from above:
| Substance | target | test | system | setting | scale | endpoint | result |
| --- | --- | --- | --- | --- | --- | --- | --- |
| Fc1ccccc1SSc1ccccc1F | tubulin | colchicine binding, [3H]colchicine binding | – | 50 µM, 10 min, 37 °C, with: [3H]colchicine 5.0 µM | – | inhibition | 53 ± 5% |
| COc1ccc2c(c1)c(CC(=O)O)c(C)n2C(=O)c1ccc(Cl)cc1 | SLC51A with OSTβ | transport | Flp-In-293 cells overexpressing OSTα/β | 100 µM, 30 s, with: DHEAS 20 µM | – | inhibition | no inhibition |
| NS(=O)(=O)c1ccc(N2N=C(c3ccc(F)cc3O)CC2c2ccc(Br)cc2)cc1 (centres unmarked) | CA12 (Homo sapiens, UniProt O43570) | enzyme activity, inhibitor, absorbance | – | 1 mM | – | inhibition | 37% |
| C/C(=N/N=c1/scc(-c2ccc([N+](=O)[O-])cc2)n1-c1c(C)cccc1C)c1ccc2c(c1)OCCO2 | Aldo-keto reductase family 1 member A1 | enzyme activity, inhibitor, absorbance | – | 1 mM | – | inhibition | 21.7% |
| O=c1c(-c2ccc(O)cc2)coc2cc(O)cc(O)c12 | CNGA1 | ion current, inside-out patch clamp | Xenopus oocytes | 100 µM, with: cGMP 2 mM | – | inhibition | 45.8 ± 5.7% |
